Measurements from different studies.
A part holds a random share of what one study measured.

Block 1
Target: RNA binding protein fox-1 homolog 2, RRM domain, GST-SBP tag (RBFOX2, Homo sapiens, UniProt O43251-10, residues 100-194)
Method: RNA Bind-n-Seq
Molecule type: RNA
Matrix: in vitro
Tested at: 365 nM
Setting: natural RNA segment, single round, ends assumed
Reference: no-protein control
Reading: higher = stronger binding
All sequences stand within: GGGAGUUCUACAGUCCGACGAUC … UGGAAUUCUCGGGUGCCAA
Target sequence (chain): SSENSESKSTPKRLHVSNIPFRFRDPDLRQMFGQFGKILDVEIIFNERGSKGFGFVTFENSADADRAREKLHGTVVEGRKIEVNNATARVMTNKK
Sequence | RBNS enrichment (R)
GGAAGACCCAGAGAGGCCAAGAUCCCAUCCUUAGCCAUAGCGAGCGGUGGUGGUGGAUAGCAUCACAAGAAACGAGCCUGAAAAUCAGGUCCAGCCGGUCCAAGCACAUG | 0.308
AUUUCUGUGUGUUGUGUAUGCUAGGUGAUGCCCUCAGAAGGGACUGACUACUAGACUGUAAGUGUGUUUUAUACAAGUGUGUAAGACUAAGACUCACGUGCACGAAUCGA | 2.94
CGCACUUCACCCUCGCGAGCCGCUGUUCACUCCUCUCCCCUUUCUCUUUCUCUCUGUUUUUAAAAUAAUCUAAAGAAAGCACAUUUUACCAUUGCUGUUGGGAGGAAGCA | 0.694
GGCUUGGAAUUCAACUCAGUUUAGCACCAAAGCCAGUGCUAUUAAGACCUGAAGUUCAACAGUGGAUUCCUUACCAAAUAGUUUUUAAAGUAUGCUCUAAGGAACAAUGU | 0.339
AACCAAAUUUGAAUACUGCAAAUUUGUAGGAGUUACUAGGUUAGCAAUUAGUCCAUACAUCCAUAAGCCUGAUGAGUUGAAAUUGCAGUUUGAGAAGUGAAUUAACCUUA | 0.96
GGGCAGCGAGAGGACAGGCUAUGGCUUGCUCCUGGACCUAUACUCCCUUAGCCCCAGUCCCACAGAUCAGGUGGAGACUGGAGUGACAGAGGGCGACUGUACCAAGGCCA | 0.222
AAAUCUUGACUUACCCAGUCCCCACCUGUCUCUUCCUGCCUUCUUUAUCUGUAAGAACACAAAUUUGGCAUUACAGUUAAGGGAGUGAUUUGAAUUGAUUGACAAGUCCU | 0.206
AUCACUAGUCCUUACAGAACAGGAGCCAGAACUCUGGCAGACAUCAAAGCAAAAGCCCAGUUGGUCAAAGCACAAAAGGCAGCAGCCGCAGCAGCUGCUGCAGCUGCUGC | 0.257
AAAUAUCUGUAUUAUACUCUAAGCUAUUACAAUGGUACUUAAAAUAAUGUAAAUUUGAAGUCAUUGUUAUAAAGUAAUAAAAGUGGAAAUUACUUAAGUAUUUAAAUUAU | 0.893
AAUGUGUGGUGCUUUGGUGAGCAAACCCUCAGCAGUCCUGACCUUCGGGUGACCAGGUGCUUGUGACCUACAAGUCAGAGUCCUCUCUCACAGUCGGCCACUGGAUUUCC | 0.164
UAGUAUUUUUCUUUUGGAAAUGUGCCUUAUGUUAAACACUAUGUACUUUUACUUUUUGCAUUGUCCAGACUUCUUUAUUAGAUGGAGAUGUUUCUUUUUCUGUCUUCUAG | 0.315
UCACGUCACCUGGUGCGUGGAGGUGGAGCCUGCGGCUGGAGUAAGGCUUGCUGUGGGACGCCCUCGUACUUUGCUCUCCUUGCGGGUGGUUGCCGAGCCGAGAGCAUUGG | 1.44

Block 2
Target: RING finger protein unkempt homolog, zinc fingers 1-6, GST-SBP tag (UNK, Homo sapiens, UniProt Q9C0B0, residues 30-357)
Chain of UniProt Q9C0B0 (30-357, looked up): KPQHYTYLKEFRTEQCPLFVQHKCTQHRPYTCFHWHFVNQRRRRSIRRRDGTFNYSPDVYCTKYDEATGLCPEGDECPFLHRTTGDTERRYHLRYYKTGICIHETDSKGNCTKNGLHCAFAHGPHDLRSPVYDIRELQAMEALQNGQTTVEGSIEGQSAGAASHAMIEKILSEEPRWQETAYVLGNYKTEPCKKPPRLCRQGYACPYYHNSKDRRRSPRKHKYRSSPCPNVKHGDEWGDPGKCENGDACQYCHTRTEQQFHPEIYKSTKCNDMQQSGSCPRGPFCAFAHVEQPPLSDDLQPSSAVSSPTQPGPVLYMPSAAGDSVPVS
Method: RNA Bind-n-Seq
Molecule type: RNA
Matrix: in vitro
Tested at: not given
Setting: RNA with constant flanks, human and mouse sites, ends assumed
Reference: input RNA pool
Reading: higher = stronger binding
All sequences stand within: GGGAGUUCUACAGUCCGACGAUC … CAACAGAGGAUUGAGCAUCA
Sequence | bound/input enrichment [ratio]
CAGCUGCGAGGCCGCGGGUGCCCGCCGGGUGUGCUGAGCCGCCGCCAUGGGCAUCAAGUUUUUAGAAGUUAUUAAACCUUUCUGUGCAGUUCUACCAGAAAUUCAGAAGCCUGAAAGGAA | 1.52
CGGUGAUGUCCUUACUGUCCCCAGCCAGGGCCGGGGACCGGUGUUUCACUGAGGACCUGCAUUAGAAACAUUUUUUAAAUUGUUGUACAGGAAGAGAUGUGUCUAAAACAGCAUCUUAAA | 5.38
CAAGCAGCUCUUGAAUUUCAUGGUGUUGCCCAAGAUUUGUCUCAGCAGUUGGAUGGCUUAUUAGGGAUGUUGUGCGUAGAUGUAGCACCAGCUGAUGGAGCAUCGAUUCAGCAAACUUUA | 0.359
CUGAAGGGGAAAGUUAUCCUCUUUUUGCCCAAGUCACACUUGUGUCAUUUCUUAUACUGUAAACAUGUGGUUCCAAUUCUGAGGUAUUUUCCCGGUUUGUAGGACCCAAAAAGAAGUUAG | 0.594
UGCUACCAGACACUGACAGAAAUGCCUAUCAGGUGUGAGCUCUUUGACCAGAACCUGAAGCUAGCUCUGGAGGUGGCAGAGAAGGCUGGAACUUUUGGACCUGGGUCAUAGGCUGAACCU | 0.148
GAGCAUCCCCCAAAGUUCACAAUGUGGCCGAGGACUUUGAUUGCACAUUGUUGUUUUUUUAAUAGUCAUUCCAAAUAUGAGAUGCGUUGUUACAGGAAGUCCCUUGCCAUCCUAAAAGCC | 0.54
GGGUUGCUUCCCAUCCCAACCUCCAGUCCUCUGACGGCAGUGAGUAGUCUUGGUGUUUCACUUAGCAGUUUGGGAGCUAUCCCAGCAGCAGCGCUGGACCCAAAUAUUACAACACUUGGA | 0.116
AUAUAGACCUAUGAUGUACAGGUACAACAUGUAUAGGUUACGUAGAUAUUAUGAGAAAUUUUAGUUUAUUGUGAGUACUCCAGUUGCUUUAAAAACCACCAGGGUGAUUUGCUGCUGGCU | 63.8
GAAAUGGCCACCACAGAAGAUGCUCAGGCUGCUGUGGAUUAUUAUACAACUACACCAGCAUUAGUGUUUGGCAAGCCAGUGAGAGUUCAUUUAUCCCAGAAGUAUAAGAGAAUAAAGAAA | 0.59
UUACGCAUUGGAGUUGAUAACCACGUGUUACCCUUGGACUGUGUUACUCUGCAGACGUUCUUAGCAAAGUGCUUAGGACCCUUCGAUGAGUGGGAAAGCCGGCUAAGGGUGGCAAAGGAG | 0.136
CAAGAGGCUGGACCAAAUGGGAACCCCCUGCCCCGAGAGCAGCUGUUACUUUUAGGGACACUAACAGACCUAUCGGCAGACUUGGAACAAGAGUGCAGGAACGGAAGCCUCUAUGUGAGA | 0.273

Block 3
Target: Protein max, full length (MAX, Homo sapiens, UniProt P61244-2, residues 1-151)
Method: protein-binding microarray
Molecule type: double-stranded DNA, one strand shown
Matrix: in vitro
Tested at: not given
Setting: k-mer, scored over probes, only values ≥0.25
Reading: higher = stronger binding
Sequence | E-score
CGTGATGC | 0.342
AGCGTGGA | 0.4
ATCACGAG | 0.418
AGCACGCA | 0.391
CATATGAC | 0.362
ACGTGCAA | 0.418
ACATATGC | 0.296
CCCCGCAC | 0.289
CCGCCCAC | 0.28
CTCGTGAC | 0.448
AACATGCG | 0.426
ACGCGTTA | 0.295
CCCACCCA | 0.288
CCGCCACG | 0.344
CATGTAAA | 0.263
ATGGTCGC | 0.251
ATATGGCC | 0.274
CGGCATGC | 0.407
CGCGCACG | 0.418
CATGGGAC | 0.345
TAGCATGA | 0.325
CGTGCACG | 0.456
ACGAGGAA | 0.339
CATGGCAC | 0.357

Block 4
Target: TAR DNA-binding protein 43, full length, His tag (TARDBP, Homo sapiens, UniProt Q13148, residues 1-414)
Method: RNA Bind-n-Seq
Molecule type: RNA
Matrix: in vitro
Tested at: 20 nM
Setting: 6-mer, flanks averaged, single round
Together with: 150 mM KCl
Reference: input library
Reading: higher = stronger binding
Sequence | 6-mer enrichment (R)
GGUUAG | 1.52
GGGAUG | 4.06
GGGACU | 1.87
GUCUCC | 0.643
CCGACU | 0.636
GCGGGC | 4.49
UUCCGU | 0.591
UCAGCC | 0.63
UACGUU | 0.592
CACCUU | 0.631
UAAGAC | 0.639
UCCCCU | 0.672
GCUGCU | 0.818
ACGCUG | 0.821
CACAAA | 0.674
UCAUGG | 0.906
CCCAAC | 0.624
AACCCC | 0.635
AUGGGA | 2.06

Block 5
Target: Histone acetyltransferase KAT6A, winged helix 1, GST fusion (KAT6A, Homo sapiens, UniProt Q92794, residues 1-85)
Method: protein binding microarray
Molecule type: double-stranded DNA, one strand shown
Matrix: in vitro
Tested at: not given
Setting: 8-mer, flanks averaged, mean of 2 arrays, mostly near background
Reference: not given
Reading: higher = stronger binding
Construct (chain): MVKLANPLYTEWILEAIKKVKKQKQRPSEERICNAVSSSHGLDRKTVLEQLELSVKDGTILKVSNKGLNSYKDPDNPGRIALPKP
Sequence | E-score
GAGAGCCA | -0.126
CCTCCGTC | 0.0868
AATGCCAT | 0.00199
GAGTCCCC | -0.235
ACACTCCG | -0.0935
AATAGAGG | -0.0785
CAAAGACG | 0.0907
TAAGCAAA | -0.0556
ACGGGTGC | 0.321
AGCAGCGA | -0.048
AGGGAAAC | -0.149
ATTTTAGC | -0.000815
CTTGGACA | -0.179
GCACTTAC | 0.14
ATCGTTGA | -0.176
TCAAGAAA | -0.223
CCAGGACC | -0.126
ATCAGTTC | -0.0722
GATTCCGA | 0.254
CTCGGGAA | 0.117
CCACATAC | -0.187
CAATGATA | -0.0376
CGGTGGAA | 0.063
CATTCACG | 0.0642
ATTTGCAA | -0.191
